Assay results gathered from unrelated publications.
Every numbered part comes from another study and shows a few of its results, in no order.

Set 1 — method: EMSA with sequencing; molecule type: double-stranded DNA, one strand shown; matrix: in vitro; concentration: 10 and 20 nM; relative to: negative control set to 0; direction: higher = stronger binding
Target: Hepatocyte nuclear factor 3-alpha (Foxa1, Mus musculus, UniProt P35582, residues 1-468, full length assumed)
Notes: whole designed probe, mean of two concentrations, ends assumed
Shared flanks, not repeated: GTGAGCGGTGCCCATTGATGGGGAAC … TTTCACTGGGATCGTGGGGAC
Residues (chain): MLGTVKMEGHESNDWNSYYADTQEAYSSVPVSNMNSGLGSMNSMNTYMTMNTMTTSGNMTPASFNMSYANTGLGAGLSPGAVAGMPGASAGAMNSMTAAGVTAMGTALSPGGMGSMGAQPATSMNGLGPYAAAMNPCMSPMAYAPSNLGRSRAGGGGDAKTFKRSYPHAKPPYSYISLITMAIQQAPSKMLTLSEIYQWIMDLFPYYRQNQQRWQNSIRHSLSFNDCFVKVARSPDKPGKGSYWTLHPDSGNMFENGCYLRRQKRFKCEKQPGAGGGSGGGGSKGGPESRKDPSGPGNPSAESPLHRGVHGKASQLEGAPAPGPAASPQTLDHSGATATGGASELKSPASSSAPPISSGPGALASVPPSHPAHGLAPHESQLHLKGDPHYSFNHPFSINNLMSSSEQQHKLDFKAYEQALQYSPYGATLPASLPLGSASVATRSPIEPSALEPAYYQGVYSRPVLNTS
Sequence | normalised bound fraction [ratio]
TGAAGTGGGAACCTGAGGGTCATCTGAGAATTTTCCCTACCCACCTGAATAGATTTCTAAAATCACCTTTCAGTTGCTTTTGCTGTCTTTCTAAGTAATCTAAGATATCATCTCCAAATAATAATTAATTGAACTGCTTTTCAATTGTATTCATTAAAATAATTATCTTTTTCTGGCTTATATGAAGTATTTC | -0.0282
GCTGTCAGCCTCTTCTCCGTGGTGTTTTCTTGGAGCAAGTCCAAAGCAAAATCCTGATGCAAACAGTAACTATGGTTGTACATTGTTAAGTTGAAATTACTTTTTTGAATAGATAACGTTTACACGATCAAGATTCAGAATGTACCAAAAGTCCCCCAGTTGTCAGTTTTCCTCTCTGGAAATATACAGGAGG | -0.0355
AGGACTAGAGATGGAAAAGTGGAGACCTCGGGAGAGAAAAGTAAAAATAGGTGAGAATGTTCCATCTGAATCCCTGATGGGGACTGTGGGGCTAGATTACTTAAGGTTCTCCTTTGGGGAGGGCAGACAAGAACCAGTCCCAGCTGGGACTCTGGTGCAGAGGGATGGAAGGTGATCGTTTTGTGTGAGTCTC | 0.0238
TATTGGCTGCTTTTCAGTAACTTGGAAGCCTTAGGAGACATTCAGAGTTTGGCATCAAGTTGCATTAATCATATTAAACTTTAAAATCCGTGCTTGTTTACTCAGCAATGCATTTTAGTCATGTCGGTGTATCTTTAACACTGCTTCAAGCAACAATACAAGAACCCAACCTCTGGTCTTGCTGCTTTATTAA | 0.394
TCTACACTCTGCTGCAGCTGACAATAGGCAGCATCAGCAGCTGAAAGATGAGAGTTTGGTAATATATTTTTCATTTCCTTTCACTTGCTCCTTGTTTACTTTCTTGTCAAAGCAAACCTAGCTCACCCCTGGGGCATGTCATTTTATCAAAAAAGAAATTATGGGTTATCCCCTTTCACAGTTTTCAAAGCTA | 0.343
TGATGAAATGGTCTGGAAAGTCCTGGATTCCTTAAGAGTTGAGGGAAATCATCCTGCCTAAGTAAAGGAAACAATACCCATTGAATTGGCCCTGTTTACACTGCAGGGGATAAGCGCACGGAGGAGTTGTGCCTTGAGGTATTTTTGTCCCGCTTCAGCAAAAGCAGTGCTGTCTCTTTGATTTGTAAAGACT | 0.2
CACACACACACACACACACACACACACACGAACATGAACATAATAAGAACGGGAAGAAAAGCCCAGATTTTCCTCACCATGTGCCACCCAGCCATGTTTACACTGATCACAAGTCCTCAGGTTAATCTTCCCTGGCTGAAAACATTCACATGTGCAGTTTACCAGTGTGCAACGGATGGCCTGAAAAATAAAG | 0.188
CTAGTGTTTCTGAAAGTCAGTTCTGTAGCCACTGGGATCACCTAATATGCAGATAACCTTATGACGCAGCATTAGCTGATGAACTCTCTGGCTTTGTTTACTTTGAGATGTTTTAAAATTTCATTGGATTGAGTGAACTCTGCCATCTTTTAGCAACTATTTTTCTCCTATTCACAGTAGCCTAGATTAAATA | 0.479

Set 2 — method: RNAcompete; molecule type: RNA; matrix: in vitro; concentration: 20 nM; notes: 7-mer, probes averaged, single round; relative to: mean of 7-mers; direction: higher = stronger binding
Target: PABPC1L2, full length, GST fusion (mouse, UniProt A0ABA7IW68)
Residues (chain): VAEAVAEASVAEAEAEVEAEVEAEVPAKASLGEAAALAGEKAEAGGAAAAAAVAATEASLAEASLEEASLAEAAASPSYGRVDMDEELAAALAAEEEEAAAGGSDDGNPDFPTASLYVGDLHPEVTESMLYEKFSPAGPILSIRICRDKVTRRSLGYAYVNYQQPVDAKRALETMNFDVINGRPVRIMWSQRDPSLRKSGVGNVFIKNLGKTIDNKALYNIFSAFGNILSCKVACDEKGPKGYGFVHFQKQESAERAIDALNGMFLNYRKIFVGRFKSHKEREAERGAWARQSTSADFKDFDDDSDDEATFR
Sequence | 7-mer Z-score
ACCUGCU | -0.0591
CUUUUAU | 0.0642
GGUGUGU | -0.204
AAACGCA | 0.573
AAAUGGG | 1.64
AGGACCC | -0.0554
UUGAGGG | 0.104
UAUUCUU | -0.362
ACAAGGC | 0.338

Set 3 — method: universal PBM; molecule type: double-stranded DNA, one strand shown; matrix: in vitro; concentration: 600 nM; direction: higher = stronger binding
Target: Sal-like protein 4, full length isoform A (SALL4, Homo sapiens, UniProt Q9UJQ4, residues 1-1053)
Chain of UniProt Q9UJQ4 (whole entry, looked up): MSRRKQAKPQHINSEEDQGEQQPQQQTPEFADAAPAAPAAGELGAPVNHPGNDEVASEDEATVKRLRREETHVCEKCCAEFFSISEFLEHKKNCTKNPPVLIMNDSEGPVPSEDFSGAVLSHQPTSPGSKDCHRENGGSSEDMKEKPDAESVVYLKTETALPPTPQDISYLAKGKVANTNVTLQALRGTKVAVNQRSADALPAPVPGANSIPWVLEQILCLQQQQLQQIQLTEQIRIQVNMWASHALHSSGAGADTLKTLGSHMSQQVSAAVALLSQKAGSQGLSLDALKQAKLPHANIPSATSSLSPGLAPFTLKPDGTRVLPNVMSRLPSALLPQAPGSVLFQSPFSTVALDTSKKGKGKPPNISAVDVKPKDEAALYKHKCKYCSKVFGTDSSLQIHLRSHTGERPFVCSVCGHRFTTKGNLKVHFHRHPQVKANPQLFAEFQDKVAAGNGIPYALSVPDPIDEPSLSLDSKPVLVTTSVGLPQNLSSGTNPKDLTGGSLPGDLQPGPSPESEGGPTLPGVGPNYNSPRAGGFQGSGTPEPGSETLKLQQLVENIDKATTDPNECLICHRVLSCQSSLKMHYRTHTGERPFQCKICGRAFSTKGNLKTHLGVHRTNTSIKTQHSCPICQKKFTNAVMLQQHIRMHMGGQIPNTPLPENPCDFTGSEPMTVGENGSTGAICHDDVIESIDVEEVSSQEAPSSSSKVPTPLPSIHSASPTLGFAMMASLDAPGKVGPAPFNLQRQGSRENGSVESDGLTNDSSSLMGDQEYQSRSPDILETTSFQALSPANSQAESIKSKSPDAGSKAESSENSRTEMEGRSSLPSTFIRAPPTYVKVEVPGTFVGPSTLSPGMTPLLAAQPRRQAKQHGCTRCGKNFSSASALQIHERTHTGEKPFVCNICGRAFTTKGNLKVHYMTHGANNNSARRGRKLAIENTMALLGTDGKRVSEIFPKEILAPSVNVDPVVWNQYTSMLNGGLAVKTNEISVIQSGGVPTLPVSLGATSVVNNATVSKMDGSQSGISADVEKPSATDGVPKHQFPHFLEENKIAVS
Notes: 8-mer, flanks averaged, mean of replicates
Sequence | E-score
AAATCAGT | 0.141
CGTAAACG | -0.0765
ATATTGGC | 0.212
CCGCCGAC | -0.318
ACTGATGG | -0.0744
AGTCGATC | -0.209
GGGAATAA | 0.228
GGGGCTAC | -0.323

Single results of other studies
Molecule | target | test | test system | setting | scale | measurement | result
PhoQ, residues 284 288 289 292 302 303 SSYNSA | PhoP, residues 12 14 15 18 19 LHHSG (Escherichia coli, UniProt P23836) | Sort-seq, item: YFP reporter | E. coli | PhoQ-PhoP variant library, added: 10 µM Mg2+ | relative to: high Mg2+ state, higher = stronger signaling | fold induction | 16.6

Repeated from above (set 2):
Sequence | 7-mer Z-score
AGGACCC | -0.0554
UUGAGGG | 0.104
UAUUCUU | -0.362
ACAAGGC | 0.338
